Measurements of several laboratories.
Compare with care: the assays were run in different laboratories. Numbers after ± are the reported error.
PIM1: Serine/threonine-protein kinase pim-1 (PIM1, Homo sapiens, UniProt P11309)
Chain of UniProt P11309 (whole entry, looked up): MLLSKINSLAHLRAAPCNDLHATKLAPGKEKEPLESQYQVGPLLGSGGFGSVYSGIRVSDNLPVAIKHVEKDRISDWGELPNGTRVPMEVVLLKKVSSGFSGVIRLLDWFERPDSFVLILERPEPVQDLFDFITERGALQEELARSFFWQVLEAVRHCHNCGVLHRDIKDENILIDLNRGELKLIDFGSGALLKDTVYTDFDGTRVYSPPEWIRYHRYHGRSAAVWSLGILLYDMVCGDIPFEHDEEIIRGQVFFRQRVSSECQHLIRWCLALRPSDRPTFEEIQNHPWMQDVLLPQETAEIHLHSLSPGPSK
YES1: Tyrosine-protein kinase Yes (YES1, Homo sapiens, UniProt P07947)
Chain of UniProt P07947 (whole entry, looked up): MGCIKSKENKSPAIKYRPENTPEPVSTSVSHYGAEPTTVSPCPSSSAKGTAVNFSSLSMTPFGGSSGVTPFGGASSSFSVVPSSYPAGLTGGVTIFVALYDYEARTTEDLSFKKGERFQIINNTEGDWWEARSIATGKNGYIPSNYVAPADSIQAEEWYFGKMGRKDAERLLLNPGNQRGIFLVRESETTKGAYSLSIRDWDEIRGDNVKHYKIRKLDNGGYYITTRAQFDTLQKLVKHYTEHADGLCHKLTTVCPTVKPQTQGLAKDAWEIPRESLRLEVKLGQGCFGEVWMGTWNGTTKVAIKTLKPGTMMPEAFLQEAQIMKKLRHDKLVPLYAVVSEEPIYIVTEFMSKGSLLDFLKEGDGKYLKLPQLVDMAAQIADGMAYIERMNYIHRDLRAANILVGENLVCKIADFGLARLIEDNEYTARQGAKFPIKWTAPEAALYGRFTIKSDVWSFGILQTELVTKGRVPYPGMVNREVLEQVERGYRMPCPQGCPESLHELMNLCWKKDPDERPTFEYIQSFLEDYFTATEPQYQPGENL
CD38: ADP-ribosyl cyclase/cyclic ADP-ribose hydrolase 1 (CD38, Homo sapiens, UniProt P28907)
Chain of UniProt P28907 (whole entry, looked up): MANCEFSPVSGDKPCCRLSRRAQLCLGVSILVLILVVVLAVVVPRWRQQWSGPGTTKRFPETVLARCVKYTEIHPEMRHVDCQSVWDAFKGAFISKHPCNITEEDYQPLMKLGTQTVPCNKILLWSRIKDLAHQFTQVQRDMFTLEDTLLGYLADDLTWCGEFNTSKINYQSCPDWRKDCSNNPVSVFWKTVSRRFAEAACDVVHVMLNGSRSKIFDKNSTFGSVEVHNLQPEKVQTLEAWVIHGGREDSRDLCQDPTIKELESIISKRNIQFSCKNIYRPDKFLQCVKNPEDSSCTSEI
Chain of UniProt P23219 (whole entry, looked up): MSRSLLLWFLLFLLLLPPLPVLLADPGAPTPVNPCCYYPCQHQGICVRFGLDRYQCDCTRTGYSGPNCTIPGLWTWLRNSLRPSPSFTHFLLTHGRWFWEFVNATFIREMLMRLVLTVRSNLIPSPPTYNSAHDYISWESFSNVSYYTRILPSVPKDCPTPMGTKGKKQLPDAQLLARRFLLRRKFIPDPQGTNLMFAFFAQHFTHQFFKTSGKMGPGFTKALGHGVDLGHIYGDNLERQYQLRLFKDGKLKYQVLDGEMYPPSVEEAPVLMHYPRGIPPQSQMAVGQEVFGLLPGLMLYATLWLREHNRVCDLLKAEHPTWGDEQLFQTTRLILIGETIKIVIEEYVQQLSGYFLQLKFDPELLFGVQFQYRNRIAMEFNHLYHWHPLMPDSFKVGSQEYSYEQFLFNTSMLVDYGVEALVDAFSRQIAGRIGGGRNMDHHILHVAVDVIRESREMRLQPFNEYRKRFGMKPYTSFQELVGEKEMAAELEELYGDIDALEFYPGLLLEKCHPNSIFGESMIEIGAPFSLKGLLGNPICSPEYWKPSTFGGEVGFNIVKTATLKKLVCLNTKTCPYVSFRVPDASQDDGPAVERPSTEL
Chain of UniProt Q04771 (whole entry, unmodified, looked up): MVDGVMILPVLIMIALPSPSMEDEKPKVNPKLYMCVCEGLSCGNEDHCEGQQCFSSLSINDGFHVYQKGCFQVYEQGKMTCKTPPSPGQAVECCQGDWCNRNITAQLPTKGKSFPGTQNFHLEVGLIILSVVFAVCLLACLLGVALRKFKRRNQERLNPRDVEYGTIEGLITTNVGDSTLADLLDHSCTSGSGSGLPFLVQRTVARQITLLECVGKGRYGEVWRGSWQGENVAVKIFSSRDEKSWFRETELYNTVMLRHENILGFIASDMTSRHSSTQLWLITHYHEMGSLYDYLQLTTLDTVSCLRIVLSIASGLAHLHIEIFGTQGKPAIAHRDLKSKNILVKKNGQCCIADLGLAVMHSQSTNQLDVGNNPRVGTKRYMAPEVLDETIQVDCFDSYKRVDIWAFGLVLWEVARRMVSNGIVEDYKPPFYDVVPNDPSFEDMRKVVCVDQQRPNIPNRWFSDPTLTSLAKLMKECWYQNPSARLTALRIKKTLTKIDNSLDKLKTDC
Chain of UniProt P00743 (whole entry, looked up): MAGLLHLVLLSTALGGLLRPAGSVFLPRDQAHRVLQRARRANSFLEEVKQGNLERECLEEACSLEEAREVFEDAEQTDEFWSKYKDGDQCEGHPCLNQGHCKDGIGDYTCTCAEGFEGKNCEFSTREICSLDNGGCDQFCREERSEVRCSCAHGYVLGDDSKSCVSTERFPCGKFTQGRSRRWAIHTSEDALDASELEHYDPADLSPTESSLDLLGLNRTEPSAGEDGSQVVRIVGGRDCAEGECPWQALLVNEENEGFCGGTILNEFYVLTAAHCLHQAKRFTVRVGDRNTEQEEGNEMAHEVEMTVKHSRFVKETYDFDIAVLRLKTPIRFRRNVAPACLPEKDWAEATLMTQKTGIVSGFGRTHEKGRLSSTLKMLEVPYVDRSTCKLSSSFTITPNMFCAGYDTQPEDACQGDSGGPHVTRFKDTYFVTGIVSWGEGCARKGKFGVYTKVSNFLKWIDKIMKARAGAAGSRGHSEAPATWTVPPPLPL
Chain of UniProt Q6SZW1 (whole entry, looked up): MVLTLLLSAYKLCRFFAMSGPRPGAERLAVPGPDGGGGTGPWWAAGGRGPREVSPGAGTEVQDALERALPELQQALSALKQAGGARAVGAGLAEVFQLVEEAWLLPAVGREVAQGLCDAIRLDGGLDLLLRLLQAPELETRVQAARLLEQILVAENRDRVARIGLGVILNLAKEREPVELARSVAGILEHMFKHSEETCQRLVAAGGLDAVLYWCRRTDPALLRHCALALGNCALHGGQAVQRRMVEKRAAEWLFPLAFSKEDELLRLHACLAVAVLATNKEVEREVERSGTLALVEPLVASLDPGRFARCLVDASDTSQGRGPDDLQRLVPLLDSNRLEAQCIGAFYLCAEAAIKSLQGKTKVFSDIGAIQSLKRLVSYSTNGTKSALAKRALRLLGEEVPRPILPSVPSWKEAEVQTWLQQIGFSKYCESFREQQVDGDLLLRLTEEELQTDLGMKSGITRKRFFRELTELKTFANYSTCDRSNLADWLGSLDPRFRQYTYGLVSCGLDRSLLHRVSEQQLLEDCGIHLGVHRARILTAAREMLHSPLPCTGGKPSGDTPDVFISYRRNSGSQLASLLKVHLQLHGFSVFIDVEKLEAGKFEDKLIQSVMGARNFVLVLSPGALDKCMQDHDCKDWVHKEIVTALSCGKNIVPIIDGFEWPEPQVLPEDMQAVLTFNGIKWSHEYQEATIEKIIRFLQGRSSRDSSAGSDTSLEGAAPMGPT
Chain of UniProt P32745 (whole entry, looked up): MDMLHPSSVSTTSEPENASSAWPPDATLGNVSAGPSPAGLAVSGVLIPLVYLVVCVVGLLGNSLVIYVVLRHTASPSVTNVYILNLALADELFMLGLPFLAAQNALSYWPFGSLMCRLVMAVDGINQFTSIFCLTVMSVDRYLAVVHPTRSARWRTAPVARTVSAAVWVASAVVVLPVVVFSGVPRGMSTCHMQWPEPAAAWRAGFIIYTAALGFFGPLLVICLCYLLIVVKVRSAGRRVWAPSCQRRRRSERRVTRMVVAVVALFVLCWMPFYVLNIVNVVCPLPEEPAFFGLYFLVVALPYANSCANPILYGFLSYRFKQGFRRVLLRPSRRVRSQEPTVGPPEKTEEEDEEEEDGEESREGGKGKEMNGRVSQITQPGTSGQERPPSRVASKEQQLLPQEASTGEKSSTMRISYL
Chain of UniProt P22411 (whole entry, looked up): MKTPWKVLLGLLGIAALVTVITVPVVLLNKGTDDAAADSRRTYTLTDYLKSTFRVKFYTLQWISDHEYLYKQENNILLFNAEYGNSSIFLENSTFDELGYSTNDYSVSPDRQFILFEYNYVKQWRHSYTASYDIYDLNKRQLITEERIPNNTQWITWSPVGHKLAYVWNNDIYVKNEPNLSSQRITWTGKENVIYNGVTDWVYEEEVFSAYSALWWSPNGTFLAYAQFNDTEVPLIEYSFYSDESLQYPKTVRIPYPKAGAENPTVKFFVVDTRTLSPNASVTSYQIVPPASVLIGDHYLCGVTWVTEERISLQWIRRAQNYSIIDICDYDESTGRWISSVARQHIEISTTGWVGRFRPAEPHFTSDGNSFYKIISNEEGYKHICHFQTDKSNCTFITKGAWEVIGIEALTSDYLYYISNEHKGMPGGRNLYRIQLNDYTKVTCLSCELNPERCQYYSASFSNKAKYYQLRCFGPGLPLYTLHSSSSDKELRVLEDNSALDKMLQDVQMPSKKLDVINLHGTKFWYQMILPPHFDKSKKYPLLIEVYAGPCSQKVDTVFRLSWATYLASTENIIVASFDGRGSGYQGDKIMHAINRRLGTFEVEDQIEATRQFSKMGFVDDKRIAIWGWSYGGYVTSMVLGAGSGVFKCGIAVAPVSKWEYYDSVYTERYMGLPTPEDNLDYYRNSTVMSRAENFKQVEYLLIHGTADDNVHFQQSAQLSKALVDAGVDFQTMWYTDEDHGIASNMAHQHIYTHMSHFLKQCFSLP
Chain of UniProt P39476 (whole entry, looked up): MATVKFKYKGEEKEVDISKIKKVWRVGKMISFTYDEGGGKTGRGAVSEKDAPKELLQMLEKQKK

Compound	target	test	system	conditions	IC50
O=C1Nc2ccc(Cl)cc2C1=Cc1ccc(-c2cccc(C(=O)NCC3CCNCC3)c2)o1 (mixture of isomers)	PIM1	enzyme activity, inhibitor			0.001 µM
Cn1cc(C(=O)c2ccccc2F)cc1/C=C(\C#N)C(N)=O	Ribosomal protein S6 kinase alpha-3, C-terminal kinase domain (RPS6KA3, Homo sapiens, UniProt P51812)	enzyme activity, inhibitor		10 mM reduced glutathione, added: 0.1 mM ATP, peptide substrate	> 100 µM
O=C(c1cccc(Br)c1)N1CCN(c2ccc(F)cc2)CC1	SEC14 (Saccharomyces cerevisiae, UniProt P24280)	enzyme activity, inhibitor, radiometric			> 100 µM
Clc1ccccc1NCc1cn(-c2ccccc2)nc1-c1ccc(OCc2ccccc2)cc1	PTGS1 (Homo sapiens, UniProt P23219)	enzyme activity, inhibitor, absorbance			98.6 µM
CNC(=O)C1CCN(c2ccccc2NC(=O)c2ccc(-c3cc(O)ccc3C)cc2)CC1	YES1	target engagement, NanoBRET	intact cells		> 50 µM
CCN(c1nc(N[C@H](CC(N)=O)C(=O)NC)nc(N2CCN(c3ccccc3C#N)CC2)n1)C1CCCCC1	Slit homolog 2 protein, with SLIT2 (SLIT2, Homo sapiens, UniProt O94813)	inhibitor, TR-FRET			68.8 ± 12.5 µM
CNC(=O)C1CCN(c2cc(C)c(F)cc2NC(=O)c2ccc(-c3c(C)ccc4[nH]ncc34)c(C)c2)CC1	YES1	target engagement in cells, BRET			8.83 µM
CC(=O)NCCN(CCC(=O)NCCN(CCC(=O)NCCN(CCC(=O)NCCC(N)=O)C(=O)[C@@H](N)Cc1ccccc1)C(=O)[C@@H](N)CCCNC(=N)N)C(=O)[C@@H](N)CCCNC(=N)N	HIV-1 TAR RNA	Tat/TAR complex displacement, FRET		room temperature, added: 10 nM Tat/TAR complex	5.4 ± 0.8 µM
Cn1sc(Nc2c(Cl)ccc3ncccc23)c(C#N)c1=O	SARM1 (Homo sapiens, UniProt Q6SZW1)	enzyme activity, inhibitor			0.16 µM
Nc1nc2c(=O)n3cnc2n1[C@@H]1O[C@H](Cn2cc(nn2)COC[C@H]2O[C@@H]3[C@H](O)[C@@H]2O)[C@@H](O)[C@H]1O	CD38	enzyme activity, inhibitor			185 µM
CC(C)N1CCn2cc(C(=O)NCc3ccc(F)cc3F)c(=O)c(O)c2C1=O	gag-pol/sso7d, integrase (Human immunodeficiency virus type 1 group M subtype B, UniProt P12497+P39476)	integrase strand transfer, inhibitor, concerted integration	HIV-1		0.106 µM
CC1=C2C(=O)C3CC[C@@H](C)C2(CC1)C3(C)C (stereo partly drawn)	DPP4 (Sus scrofa, UniProt P22411)	enzyme activity, inhibitor, absorbance			> 229 µM
O=C(/C=C(\O)C(F)(F)C(F)(F)F)c1cccnc1	Formate-nitrite transporter (FNT, Plasmodium ovale, UniProt A0A1D3TGZ2)	L-lactate transport, inhibitor	yeast	pH 6.8, added: 14C-L-lactate 1 mM	0.21 ± 0.03 µM
CS(=O)(=O)Oc1ccc2nc(-c3cc(-c4cnn(C5CCNCC5)c4)cnc3N)oc2c1	JAK2 (Homo sapiens, UniProt O60674)	enzyme activity, inhibitor, TR-FRET			0.17 µM
O=C(NOCCO)c1cc2snnc2c(F)c1Nc1ccc(I)cc1F	PIM1	enzyme activity, inhibitor			1.34 µM
O=c1nc2[nH]nc(-c3cc(Br)ccc3F)nc-2c(=O)[nH]1	TPR (Trypanosoma brucei brucei, UniProt P39051)	inhibitor, DTNB-coupled colourimetric		added: substrate at Km	92 µM
COc1cc(-c2nc3ccc(C(=O)NCCCN4CCN(C(=O)c5ccccc5)CC4)cc3n2C2CCC2)cc(OC)c1OC	ACVR1 (Homo sapiens, UniProt Q04771, R206H)	binding, NanoBRET	HEK293		2.61 µM
CCc1ccc2c(C)nc(NC3=NC(C)(C)C=C(C)N3)nc2c1	CD38	enzyme activity, inhibitor, fluorescence			22 µM
NCCCCCO[C@H]1O[C@H](COS(=O)(=O)O)[C@@H](O[C@@H]2O[C@@H](C(=O)O)[C@@H](O[C@H]3O[C@H](COS(=O)(=O)O)[C@@H](O[C@@H]4O[C@@H](C(=O)O)[C@@H](O[C@H]5O[C@H](COS(=O)(=O)O)[C@@H](O[C@@H]6O[C@@H](C(=O)O)[C@@H](O[C@H]7O[C@H](COS(=O)(=O)O)[C@@H](O[C@@H]8O[C@@H](C(=O)O)[C@@H](O)[C@H](O)[C@H]8OS(=O)(=O)O)[C@H](O)[C@H]7NS(=O)(=O)O)[C@H](O)[C@H]6OS(=O)(=O)O)[C@H](O)[C@H]5NS(=O)(=O)O)[C@H](O)[C@H]4OS(=O)(=O)O)[C@H](O)[C@H]3NS(=O)(=O)O)[C@H](O)[C@H]2OS(=O)(=O)O)[C@H](O)[C@H]1NS(=O)(=O)O	F10 (Bos taurus, UniProt P00743)	enzyme activity, inhibitor, absorbance			52 µg/mL
CC(C)NCc1ccc(C[C@@H]2NC(=O)[C@@H](Cc3c[nH]c4ccccc34)NC(=O)[C@H](Cc3ccccc3)NC(=O)[C@H](N)CSSC[C@@H](C(=O)N[C@@H](Cc3ccc4ccccc4c3)C(N)=O)NC(=O)[C@H](Cc3ccc(O)c(I)c3)NC2=O)cc1	SSTR3 (Homo sapiens, UniProt P32745)	ligand displacement, radioligand		cell membranes	0.438 µM
C=CC(=O)N1CCc2ccc(-n3c(=O)ccc4cnc5ccc(-c6cnn(C)c6)cc5c43)cc21	YES1	enzyme activity, inhibitor			> 10 µM
Cc1cccc(Cn2c(CN3CCN(C(=O)C4CC4)CC3)nc3c2c(=O)n(C)c(=O)n3C)c1	ALDH2 (Homo sapiens, UniProt P05091)	enzyme activity, inhibitor			7.7 µM
O=c1n(-c2cccnc2)cnn1-c1ccccn1	EGLN2 (Homo sapiens, UniProt Q96KS0)	enzyme activity, inhibitor, europium VBC binding		10 µM FeSO4, 2 mM ascorbate, added: 20 µM 2-oxoglutarate	> 50 µM
CSCC[C@H](NC(=O)[C@@H]1CCCN1C(=O)[C@@H](NC(=O)[C@H](Cc1ccc(O)cc1)NC(=O)[C@@H](N)CC(=O)O)C(C)C)C(=O)N[C@@H](CCC(=O)O)C(=O)N[C@@H](CCC(N)=O)C(=O)N1CCC[C@H]1C(=O)N[C@@H](CCCNC(=N)N)C(=O)N1CCC[C@H]1C(=O)O	H-2 class I histocompatibility antigen, K-D alpha chain, 29 (H2-K1, Mus musculus, UniProt P01902)	binding, competitor, radioligand competition		purified MHC, mutant peptide, added: radiolabeled standard peptide	> 70 µM

Excerpt of the above:
Compound	target	test	system	conditions	IC50
O=C1Nc2ccc(Cl)cc2C1=Cc1ccc(-c2cccc(C(=O)NCC3CCNCC3)c2)o1 (mixture of isomers)	PIM1	enzyme activity, inhibitor			0.001 µM
CC1=C2C(=O)C3CC[C@@H](C)C2(CC1)C3(C)C (stereo partly drawn)	DPP4 (Sus scrofa, UniProt P22411)	enzyme activity, inhibitor, absorbance			> 229 µM
